Published values pooled from the literature.
Parts stem from different laboratories: compare values within a part only.
Chain of UniProt Q86Z02 (whole entry, looked up): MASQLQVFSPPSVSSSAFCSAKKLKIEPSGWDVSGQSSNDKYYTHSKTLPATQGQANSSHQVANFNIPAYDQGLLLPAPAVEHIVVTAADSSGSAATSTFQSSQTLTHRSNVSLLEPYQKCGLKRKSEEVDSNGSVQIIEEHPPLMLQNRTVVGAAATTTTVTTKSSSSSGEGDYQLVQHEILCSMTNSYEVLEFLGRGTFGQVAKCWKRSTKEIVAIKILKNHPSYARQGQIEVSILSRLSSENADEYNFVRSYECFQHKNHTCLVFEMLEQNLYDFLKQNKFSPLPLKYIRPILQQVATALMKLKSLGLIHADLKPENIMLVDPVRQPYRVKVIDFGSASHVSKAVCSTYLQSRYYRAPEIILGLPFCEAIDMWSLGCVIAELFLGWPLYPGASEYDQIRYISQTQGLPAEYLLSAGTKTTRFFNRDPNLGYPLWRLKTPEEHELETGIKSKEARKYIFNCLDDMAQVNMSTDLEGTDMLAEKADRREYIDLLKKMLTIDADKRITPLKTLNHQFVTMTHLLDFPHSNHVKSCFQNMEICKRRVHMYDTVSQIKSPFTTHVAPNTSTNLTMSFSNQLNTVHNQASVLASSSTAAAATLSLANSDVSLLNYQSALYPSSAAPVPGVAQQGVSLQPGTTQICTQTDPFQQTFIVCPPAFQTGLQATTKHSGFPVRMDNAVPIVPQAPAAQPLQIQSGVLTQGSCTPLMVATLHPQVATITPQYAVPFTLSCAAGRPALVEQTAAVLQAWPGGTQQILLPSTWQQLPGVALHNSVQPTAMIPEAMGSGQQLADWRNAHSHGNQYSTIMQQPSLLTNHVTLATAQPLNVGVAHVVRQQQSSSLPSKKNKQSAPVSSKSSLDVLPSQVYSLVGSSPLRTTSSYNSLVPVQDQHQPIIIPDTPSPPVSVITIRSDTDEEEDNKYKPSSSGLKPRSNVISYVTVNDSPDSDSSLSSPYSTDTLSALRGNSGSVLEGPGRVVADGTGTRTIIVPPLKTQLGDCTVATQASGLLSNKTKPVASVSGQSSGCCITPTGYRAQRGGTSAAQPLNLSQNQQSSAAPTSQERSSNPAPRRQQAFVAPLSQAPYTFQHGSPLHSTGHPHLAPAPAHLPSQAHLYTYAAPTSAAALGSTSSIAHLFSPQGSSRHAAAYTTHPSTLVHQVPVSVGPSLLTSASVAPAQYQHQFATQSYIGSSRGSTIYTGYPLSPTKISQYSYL
Chain of UniProt P07332 (whole entry, looked up): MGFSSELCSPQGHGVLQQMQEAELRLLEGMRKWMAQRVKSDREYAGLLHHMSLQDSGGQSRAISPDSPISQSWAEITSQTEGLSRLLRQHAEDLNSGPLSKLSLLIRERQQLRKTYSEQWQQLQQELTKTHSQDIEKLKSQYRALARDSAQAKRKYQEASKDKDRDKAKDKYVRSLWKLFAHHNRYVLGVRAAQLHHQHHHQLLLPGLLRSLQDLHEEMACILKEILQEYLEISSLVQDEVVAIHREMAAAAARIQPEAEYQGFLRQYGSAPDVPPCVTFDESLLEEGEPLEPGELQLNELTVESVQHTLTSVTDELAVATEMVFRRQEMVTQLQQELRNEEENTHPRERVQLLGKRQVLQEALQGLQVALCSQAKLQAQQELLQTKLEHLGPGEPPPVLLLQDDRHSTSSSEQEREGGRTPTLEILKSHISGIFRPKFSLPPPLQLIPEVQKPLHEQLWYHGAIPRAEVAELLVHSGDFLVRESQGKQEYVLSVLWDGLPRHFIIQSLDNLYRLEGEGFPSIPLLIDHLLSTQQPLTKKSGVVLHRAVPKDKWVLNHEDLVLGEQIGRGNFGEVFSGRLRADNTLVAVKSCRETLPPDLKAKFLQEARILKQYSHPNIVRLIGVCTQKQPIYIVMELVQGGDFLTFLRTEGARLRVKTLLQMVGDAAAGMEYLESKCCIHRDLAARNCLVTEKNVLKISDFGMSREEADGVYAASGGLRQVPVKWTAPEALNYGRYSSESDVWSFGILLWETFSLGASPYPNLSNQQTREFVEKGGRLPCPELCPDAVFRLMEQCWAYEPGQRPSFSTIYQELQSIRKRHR
Chain of UniProt P78362 (whole entry, looked up): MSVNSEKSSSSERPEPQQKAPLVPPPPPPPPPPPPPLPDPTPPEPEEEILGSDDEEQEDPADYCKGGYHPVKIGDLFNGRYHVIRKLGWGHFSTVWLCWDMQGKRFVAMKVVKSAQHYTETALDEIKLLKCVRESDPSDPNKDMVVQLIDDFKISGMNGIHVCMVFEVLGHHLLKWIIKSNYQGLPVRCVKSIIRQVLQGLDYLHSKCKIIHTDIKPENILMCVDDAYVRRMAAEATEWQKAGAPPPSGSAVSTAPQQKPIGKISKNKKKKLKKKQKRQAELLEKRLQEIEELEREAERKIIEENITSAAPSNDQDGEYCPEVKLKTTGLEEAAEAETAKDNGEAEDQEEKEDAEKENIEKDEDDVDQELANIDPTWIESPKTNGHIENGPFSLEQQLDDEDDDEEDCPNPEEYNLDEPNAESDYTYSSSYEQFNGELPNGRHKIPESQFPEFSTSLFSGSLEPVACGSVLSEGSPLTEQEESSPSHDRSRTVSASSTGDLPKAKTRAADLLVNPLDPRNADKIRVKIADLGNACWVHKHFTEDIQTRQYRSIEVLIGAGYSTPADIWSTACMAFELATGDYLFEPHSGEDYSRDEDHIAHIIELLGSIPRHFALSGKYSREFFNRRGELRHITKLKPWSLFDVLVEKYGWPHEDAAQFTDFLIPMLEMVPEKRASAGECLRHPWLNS
Chain of UniProt Q00537 (whole entry, looked up): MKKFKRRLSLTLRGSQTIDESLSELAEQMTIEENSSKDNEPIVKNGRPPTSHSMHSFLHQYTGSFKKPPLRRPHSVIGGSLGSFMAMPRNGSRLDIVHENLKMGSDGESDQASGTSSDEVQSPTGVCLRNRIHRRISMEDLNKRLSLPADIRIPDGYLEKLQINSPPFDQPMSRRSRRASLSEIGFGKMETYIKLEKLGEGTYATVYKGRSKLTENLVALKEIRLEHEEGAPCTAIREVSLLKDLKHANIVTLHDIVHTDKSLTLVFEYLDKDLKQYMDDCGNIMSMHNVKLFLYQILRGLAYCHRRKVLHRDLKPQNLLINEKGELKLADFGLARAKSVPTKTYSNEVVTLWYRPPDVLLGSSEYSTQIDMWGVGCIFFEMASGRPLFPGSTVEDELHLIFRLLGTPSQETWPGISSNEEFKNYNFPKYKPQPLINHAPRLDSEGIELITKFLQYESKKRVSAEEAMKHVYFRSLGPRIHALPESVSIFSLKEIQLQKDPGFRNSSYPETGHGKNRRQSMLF
Chain of UniProt Q96SB4 (whole entry, looked up): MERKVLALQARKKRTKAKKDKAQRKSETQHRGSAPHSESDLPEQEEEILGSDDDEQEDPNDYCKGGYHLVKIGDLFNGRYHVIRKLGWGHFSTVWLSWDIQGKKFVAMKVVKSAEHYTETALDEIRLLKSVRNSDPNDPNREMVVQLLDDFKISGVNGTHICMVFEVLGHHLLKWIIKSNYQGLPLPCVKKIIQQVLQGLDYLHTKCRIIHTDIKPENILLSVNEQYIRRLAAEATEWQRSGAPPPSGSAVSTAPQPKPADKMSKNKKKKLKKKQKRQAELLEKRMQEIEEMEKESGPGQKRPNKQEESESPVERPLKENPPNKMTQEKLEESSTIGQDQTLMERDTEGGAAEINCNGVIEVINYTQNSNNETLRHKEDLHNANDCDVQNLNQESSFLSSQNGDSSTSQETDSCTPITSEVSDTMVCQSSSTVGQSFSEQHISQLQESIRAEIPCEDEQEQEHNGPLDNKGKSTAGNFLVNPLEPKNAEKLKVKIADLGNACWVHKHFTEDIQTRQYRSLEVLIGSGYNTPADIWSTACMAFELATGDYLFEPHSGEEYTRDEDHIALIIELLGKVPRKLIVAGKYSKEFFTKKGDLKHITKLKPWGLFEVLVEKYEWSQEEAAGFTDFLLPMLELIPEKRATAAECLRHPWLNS

Set 1
Target: Calcium/calmodulin-dependent protein kinase type II subunit alpha (CAMK2A, Homo sapiens, UniProt Q9UQM7)
Chain of UniProt Q9UQM7 (whole entry, looked up): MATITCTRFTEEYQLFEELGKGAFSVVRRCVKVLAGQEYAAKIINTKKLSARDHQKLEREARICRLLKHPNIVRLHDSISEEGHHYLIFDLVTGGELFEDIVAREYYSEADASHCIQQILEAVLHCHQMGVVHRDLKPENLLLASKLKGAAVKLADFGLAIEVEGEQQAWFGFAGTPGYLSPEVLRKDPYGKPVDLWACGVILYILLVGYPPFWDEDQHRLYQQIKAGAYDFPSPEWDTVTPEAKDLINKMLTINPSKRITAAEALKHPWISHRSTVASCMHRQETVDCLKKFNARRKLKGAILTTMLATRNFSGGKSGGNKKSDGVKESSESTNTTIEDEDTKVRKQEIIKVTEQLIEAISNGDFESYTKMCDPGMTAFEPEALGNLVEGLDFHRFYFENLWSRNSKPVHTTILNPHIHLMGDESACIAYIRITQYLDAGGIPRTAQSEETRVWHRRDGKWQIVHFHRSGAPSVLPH
Read-out: enzyme activity
Mode: inhibitor
Tested at: 10 µM
| Structure (SMILES) | inhibition [%] |
| --- | --- |
| NC(Cc1cccc(O)c1)C(=O)O (racemic) | -5 |
| CC(=O)N[C@H]1[C@@H](O)[C@H](O)[C@@H](CO)O[C@H]1O | 5 |
| NCC(=O)NCC(=O)O | 11 |
| CC(C)(O)CCC(=O)[C@](C)(O)[C@H]1[C@H](O)C[C@@]2(C)[C@@H]3CC=C4[C@@H](C[C@H](O)[C@@H](O)C4(C)C)[C@]3(C)C(=O)C[C@]12C | -43 |

Set 2
Cell line: HaCaT
Tested at: 100 µM
Time: 18 h
| SMILES | viability |
| --- | --- |
| Cc1cn([C@@H]2C[C@@H](O)[C@H](CO)O2)c(=O)[nH]c1=O | 114% |
| CN(C)CCCN1c2ccccc2Sc2ccc(Cl)cc21 | 17.7% |
| C[N+]1(C)[C@@H]2C[C@@H](OC(=O)C(O)(c3cccs3)c3cccs3)C[C@H]1[C@@H]1O[C@@H]12 | 107% |
| CN(C)CCc1c[nH]c2ccc(C[C@H]3COC(=O)N3)cc12 | 118% |
| CC1(C)S[C@@H]2[C@H](NC(=O)[C@H](N)c3ccccc3)C(=O)N2[C@H]1C(=O)OCOC(=O)[C@@H]1N2C(=O)C[C@H]2S(=O)(=O)C1(C)C | 90.9% |
| CCC1=C(C)CN(C(=O)NCCc2ccc(S(=O)(=O)NC(=O)N[C@H]3CC[C@H](C)CC3)cc2)C1=O | 98.5% |
| NS(=O)(=O)c1cc2c(cc1Cl)NC(C(Cl)Cl)NS2(=O)=O (centres unmarked) | 96.9% |
| Nc1nc(Cl)nc2c1ncn2[C@@H]1O[C@H](CO)[C@@H](O)[C@@H]1F | 82.7% |

Set 3
Compound: Nc1c(C(=O)NCc2ccc(C(=O)NCCCC3CCCCC3)cc2)cnn1-c1ccccc1
Read-out: cell-free assay
Method: competition with immobilised ligand
Tested at: 0.1 µM
| target | remaining binding [%] |
| --- | --- |
| HIPK1 (Homo sapiens, UniProt Q86Z02) | 100 |
| SRPK1 (Homo sapiens, UniProt Q96SB4) | 90 |
| ZAP70 (Homo sapiens, UniProt P43403) | 100 |
| FES (Homo sapiens, UniProt P07332) | 100 |
| DYRK2 (Homo sapiens, UniProt Q92630) | 97 |
| SRPK2 (Homo sapiens, UniProt P78362) | 100 |
| FLT3 (Homo sapiens, UniProt P36888, N841I) | 95 |
| PIK3C2G (Homo sapiens, UniProt O75747) | 100 |
| LATS2 (Homo sapiens, UniProt Q9NRM7) | 100 |
| PIP5K1C (Homo sapiens, UniProt O60331) | 93 |
| Tyrosine-protein kinase ABL1, phosphorylated (ABL1, Homo sapiens, UniProt P00519, M351T) | 86 |
| CDK17 (Homo sapiens, UniProt Q00537) | 78 |
| NIM1K (Homo sapiens, UniProt Q8IY84) | 81 |
| PIP4K2B (Homo sapiens, UniProt P78356) | 100 |
| TIE1 (Homo sapiens, UniProt P35590) | 100 |
| KIT (Homo sapiens, UniProt P10721) | 70 |

Set 4
Target: Beta-1 adrenergic receptor (ADRB1, Homo sapiens, UniProt P08588)
Chain of UniProt P08588 (whole entry, looked up): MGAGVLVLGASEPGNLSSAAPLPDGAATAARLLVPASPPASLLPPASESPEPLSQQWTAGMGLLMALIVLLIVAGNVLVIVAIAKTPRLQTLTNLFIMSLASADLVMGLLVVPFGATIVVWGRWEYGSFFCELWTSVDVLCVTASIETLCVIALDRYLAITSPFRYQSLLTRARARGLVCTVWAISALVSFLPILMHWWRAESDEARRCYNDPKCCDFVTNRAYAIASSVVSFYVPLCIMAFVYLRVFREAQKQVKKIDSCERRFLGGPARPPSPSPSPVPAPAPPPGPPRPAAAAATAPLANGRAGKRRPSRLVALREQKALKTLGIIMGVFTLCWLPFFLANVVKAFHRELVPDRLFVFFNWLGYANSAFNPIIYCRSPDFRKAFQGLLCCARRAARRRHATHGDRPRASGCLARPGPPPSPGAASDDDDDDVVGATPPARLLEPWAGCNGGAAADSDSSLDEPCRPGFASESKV
Mode: antagonist
| Structure (SMILES) | IC50 [µM] |
| --- | --- |
| COc1ccccc1N1CCN(c2ncccc2CNC(C)Cn2ccnc2)CC1 (centres unmarked) | ≥ 100 |
| Cn1c(COc2cccc(C(F)(F)F)c2Cl)nnc1[C@H]1C[C@H](N)C1 | ≥ 100 |
| Cc1ncc(-c2cc(C(=O)N3CCCCCCC3)c3cc(F)ccc3n2)cn1 | ≥ 100 |
| CC(=O)Nc1ccc([C@@H](O)[C@H]2COCC(=O)N2CCCc2ccccc2)cc1 | ≥ 100 |
| O=C(Nc1ccc([C@@H](O)[C@H]2COCC(=O)N2CCCc2ccccc2)cc1)c1cnccn1 | ≥ 100 |
| Clc1ccccc1C(c1ccccc1)N1CCNCC1 (centres unmarked) | ≥ 100 |

Mixed results
| Compound | assay | test system | setting | endpoint | result |
| --- | --- | --- | --- | --- | --- |
| CC(C)n1cnc(-c2ccc(F)cc2)c1-c1ncc(C(=O)Nc2ccc(N3CCN(C)CC3)cc2)[nH]1 | phase 2a trial | idiopathic pulmonary fibrosis patients | 30 mg once daily, maximum grade 1 | patients with benign prostatic hyperplasia | 1% |

A few entries again (set 2):
| SMILES | viability |
| --- | --- |
| CN(C)CCCN1c2ccccc2Sc2ccc(Cl)cc21 | 17.7% |
| C[N+]1(C)[C@@H]2C[C@@H](OC(=O)C(O)(c3cccs3)c3cccs3)C[C@H]1[C@@H]1O[C@@H]12 | 107% |
| CN(C)CCc1c[nH]c2ccc(C[C@H]3COC(=O)N3)cc12 | 118% |
| CC1(C)S[C@@H]2[C@H](NC(=O)[C@H](N)c3ccccc3)C(=O)N2[C@H]1C(=O)OCOC(=O)[C@@H]1N2C(=O)C[C@H]2S(=O)(=O)C1(C)C | 90.9% |
| CCC1=C(C)CN(C(=O)NCCc2ccc(S(=O)(=O)NC(=O)N[C@H]3CC[C@H](C)CC3)cc2)C1=O | 98.5% |
